Experimental data of several laboratories.
Every numbered part comes from another study and shows a few of its results, in no order. Positions count from the first letter of the parent shown.

Sample 1
Target: CCNB3, cyclin fold, Cln2 fusion (human)
Technique: yeast growth competition, sequencing
Matrix: yeast
Notes: weak parent motif
Relative to: not given
Reading: higher = stronger binding
Endpoint: normalised enrichment score
Starting sequence: INSM1 docking peptide (human); PKAIRKLHFEDEV
I4Y: -0.0443
R5S: 0.189
F9M: 0.038
A3T: 0.246
H8D: 0.135
A3C: 1.14

Sample 2
Target: RING finger protein unkempt homolog, zinc fingers 1-6, GST-SBP tag (UNK, Homo sapiens, UniProt Q9C0B0, residues 30-357)
Technique: RNA Bind-n-Seq
Molecule type: RNA
Matrix: in vitro
Tested at: not given
Notes: RNA with constant flanks, human and mouse sites, ends assumed
Relative to: input RNA pool
Reading: higher = stronger binding
Endpoint: bound/input enrichment
Constant ends, left off below: GGGAGUUCUACAGUCCGACGAUC … CAACAGAGGAUUGAGCAUCA
Construct (chain): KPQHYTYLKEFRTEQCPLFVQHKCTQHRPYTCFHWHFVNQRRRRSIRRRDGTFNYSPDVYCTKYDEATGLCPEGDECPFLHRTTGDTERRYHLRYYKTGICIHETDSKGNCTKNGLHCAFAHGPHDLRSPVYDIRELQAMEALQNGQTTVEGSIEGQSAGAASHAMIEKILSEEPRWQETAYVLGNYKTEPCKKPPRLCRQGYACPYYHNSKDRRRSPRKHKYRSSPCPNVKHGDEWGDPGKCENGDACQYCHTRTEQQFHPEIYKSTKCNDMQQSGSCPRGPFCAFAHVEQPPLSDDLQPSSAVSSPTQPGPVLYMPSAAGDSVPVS
GAACCGAUCAGUGUGAGUAUAUACACUUCUGAUAACUACUCUGAAGAAGUGGGUUCUGGAGACUAUGACUCCAACAAGGAACCCUGCUUCCGGGAUGAAAACGUCCAUUUCAAUAGGAUC: 0.131 ratio
UCCUUUCAGUUUUUAUUAAUCUACUGUAUCAAUAAAAUUCUGUAAUUUGAAUGAGUUUUUAAUAGUCUAGAAUGUUAUUGUGUAUAGAUAUUUCCUCUUGAACGUUAUGUUCAGAAAAUG: 4.31 ratio
AAGUUUGGACAUCAUGAAGAUGCUGCUUAUGUAUUGUGCCAAGAUGGAGAAAGAUGGCUACGGAAUGACUCCUCUUCUCUCAGCAAGUGUGACUGGUCACACUAAUAUUGUGGAUUUUCU: 0.145 ratio
CCAACAAGAGAGUCGGAAUAUCACUCUUCAGAUCUCAGAAUGUUGAGGAUGUCUCCUGACACUGUGCCAAAGGCUCCUAAACAUUUAAAAGCAGGAGACACUUCUAAAGGAGGCAUAGCU: 0.0467 ratio
GAUGCAGUUAAGGAAGAAAAUCUGAAGCUAAAAUCAGAAAACCAAGUUCUUGGACAAUAUAUAGAAAAUCUCAUGUCAGCUUCUAGUGUUUUUCAAACAACUGACACAAAAAGCAAAAGA: 0.313 ratio
GCUCUGCCCCACCAUUCAUAUAUGGGCCUCAGCUCCCCCUAACUGUGGCCCUACAAAUCCCUAGGCCAGACCUCACAGCAGUGCCCACAGGCAUGCCUUGUUUAGCCCUCCUCAAGGAAU: 0.346 ratio
CGGUCCAUCCUUUCAGUCUGAGACCGGCCCAGAAGAAAAAAACCCCAAAAACCUUAAUUUUCUUUCUUGUUCGGUACCUACAUUGGAACCAUCAAAAACAAUUAUUUCAGUAAACCGUAG: 0.509 ratio
AGUGAAAAUAUUUCUGCAGCUAUCCAAGCUAAUGGUGAAAUGGUUACAAAGCAACCAUUGAUUAGAAGUAUGCGAACUGUAAAAAGGGAAACUUUAAAGUUAAUAUCUGGUUGGGUGAGC: 0.317 ratio

Sample 3
Target: RNA binding protein fox-1 homolog 2, RRM domain, GST-SBP tag (RBFOX2, Homo sapiens, UniProt O43251-10, residues 100-194)
Technique: RNA Bind-n-Seq
Molecule type: RNA
Matrix: in vitro
Tested at: 365 nM
Notes: natural RNA segment, single round, ends assumed
Relative to: no-protein control
Reading: higher = stronger binding
Endpoint: RBNS enrichment (R)
Constant ends, left off below: GGGAGUUCUACAGUCCGACGAUC … UGGAAUUCUCGGGUGCCAA
Residues (chain): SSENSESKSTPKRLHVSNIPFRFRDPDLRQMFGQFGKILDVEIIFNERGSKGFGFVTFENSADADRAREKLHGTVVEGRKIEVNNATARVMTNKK
CAGAUACAAUAAAGGCUAUGAGUAUAAAUACAUAACUUCCUAACCAGGUGUAGGGCAUGUUCAUGAAUAUCAAAUCUUUUGAUGCUGGACCCAAGAGAGGAAAAGUUGUA: 0.765
UUUCUGGCUGCUGGAAUUGGAGAUAGGAUGUUUUGCUUCCCACUGCAGGAGAGCUGCCCCCUUUCACGGGGUUGGGGAAGGGUCCCCCUGGCCUCCAGCAGGAGCACAGC: 0.9
GAGAAUCAAGAAAACACCCAGAAAGGCCUUAAUGACCUCAUAGGCACUCUUCCAAAAAGACAACAGAACUGGAAUGAGAGGCCUGGGUCUGUCUCCUGCCUUAGCAGGCC: 0.354
CAGAAGCCUUGGCUAUUUAUAGCAGUUCUGACAAUAGUUUUAUAAGAACAUGAAGAGAACAGAAUCACUUGAAAAUGGAUGCCAGUCAUCUCUUGUUCCCACUACUGAAU: 0.431
ACCUGGUUCCUGCUAACUGCCAGAUUGAAUGUGUGGGCUAGAAUGCCUGCACAUUUAGUUAAACUGGGCUCAGCAUGCUUGUCCUCAAAAUGUCCAUCCUGGUCACAGCA: 1.74
GCACUGCCCAGGCCAGAGGGUAGAGCACAGGGGUUUCCCCAUACUACCUCCCCUCCCCAGGACACUCCCAGGCUUGGGUUUUUUCUAUAGGUUUGGCGGGGGGCCACAGG: 0.689
GGCUAAGGAAAGACAUGUUUUUCUCUUUUAAAUCUCUGCAACUCCAAAGUAGACUCCUUCGAACGUAUUUAAUUUGGCCUUUUCAGCUUUCUUCUUGCCCAGCUCUGUCG: 1.4

Mixed results
PhoQ, residues 284 288 289 292 302 303 SLCLSL  fold induction (PhoP, residues 12 14 15 18 19 STWGI (Escherichia coli, UniProt P23836); Sort-seq, refers to: YFP reporter; E. coli; PhoQ-PhoP variant library, added: 10 µM Mg2+; relative to: high Mg2+ state, higher = stronger signaling): 2.78
